Measurements gathered from unrelated publications.
Parts stem from different laboratories: compare values within a part only. Positions count from the first letter of the parent shown.

Block 1
Target: ABI1, truncated, D143A, DHFR fusion (Arabidopsis thaliana)
Technique: DHFR PCA, deep sequencing
Matrix: yeast
Notes: methotrexate growth selection, single substitutions
With: (+)-ABA 0.0091 µM
Baseline: wild-type fitted maximum
Reading: higher = stronger binding
Starting sequence: PYL1, truncated, DHFR fusion (Arabidopsis thaliana); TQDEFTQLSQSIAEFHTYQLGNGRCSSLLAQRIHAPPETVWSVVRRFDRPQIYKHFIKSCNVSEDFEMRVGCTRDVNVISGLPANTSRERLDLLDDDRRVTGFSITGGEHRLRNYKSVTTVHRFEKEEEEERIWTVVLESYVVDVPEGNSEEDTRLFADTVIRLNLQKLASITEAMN
| Variant | relative binding score [%] |
| --- | --- |
| R46H | 3.9 |
| L91W | 1.75 |
| R24Y | -0.454 |
| E14D | 9.56 |
| T6H | 51.1 |
| E127K | 54.8 |
| V143P | -4.77 |
| V70S | -2.23 |
| K54D | -7.8 |
| R155T | 2.2 |
| R24P | -1.55 |
| P50S | -0.886 |
| R155Q | 6.85 |
| Y115V | 5.82 |
| E174L | -3.41 |
| D159F | -5.81 |
| G148F | -7.62 |
| Y18H | 39.2 |
| V136P | -7.81 |
| K116I | -1.75 |
| E152L | 5.15 |
| T106C | 14.1 |
| V121R | 5.37 |
| D92S | 0.678 |

Block 2
Target: Sal-like protein 4, full length isoform A (SALL4, Homo sapiens, UniProt Q9UJQ4, residues 1-1053)
Sequence of UniProt Q9UJQ4 (whole entry, looked up): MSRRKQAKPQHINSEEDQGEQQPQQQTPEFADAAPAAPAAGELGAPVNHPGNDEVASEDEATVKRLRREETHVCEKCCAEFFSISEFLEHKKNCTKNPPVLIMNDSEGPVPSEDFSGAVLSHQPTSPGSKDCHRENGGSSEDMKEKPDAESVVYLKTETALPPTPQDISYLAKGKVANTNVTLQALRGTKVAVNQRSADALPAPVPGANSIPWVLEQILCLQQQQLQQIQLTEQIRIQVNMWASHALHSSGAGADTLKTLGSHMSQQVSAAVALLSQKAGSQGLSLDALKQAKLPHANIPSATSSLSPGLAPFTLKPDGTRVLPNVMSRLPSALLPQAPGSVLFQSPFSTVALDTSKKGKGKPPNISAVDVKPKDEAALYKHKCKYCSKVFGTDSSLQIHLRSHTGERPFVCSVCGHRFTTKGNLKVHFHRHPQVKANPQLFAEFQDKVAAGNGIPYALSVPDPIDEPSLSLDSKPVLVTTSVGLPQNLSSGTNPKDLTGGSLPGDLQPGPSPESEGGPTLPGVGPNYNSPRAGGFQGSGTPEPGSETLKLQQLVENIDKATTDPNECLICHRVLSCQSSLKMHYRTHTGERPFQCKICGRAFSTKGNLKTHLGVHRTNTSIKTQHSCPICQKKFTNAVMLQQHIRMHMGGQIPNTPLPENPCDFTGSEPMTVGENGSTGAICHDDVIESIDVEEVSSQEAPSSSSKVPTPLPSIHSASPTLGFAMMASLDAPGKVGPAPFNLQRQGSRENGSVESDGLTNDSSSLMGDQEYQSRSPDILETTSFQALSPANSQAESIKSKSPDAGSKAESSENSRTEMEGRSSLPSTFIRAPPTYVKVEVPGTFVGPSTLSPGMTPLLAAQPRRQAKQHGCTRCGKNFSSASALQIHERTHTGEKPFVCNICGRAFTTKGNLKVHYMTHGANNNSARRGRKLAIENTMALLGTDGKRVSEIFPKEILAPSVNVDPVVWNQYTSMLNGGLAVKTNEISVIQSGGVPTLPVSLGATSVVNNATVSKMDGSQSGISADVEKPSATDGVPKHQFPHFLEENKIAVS
Technique: universal PBM
Form: double-stranded DNA, one strand shown
Matrix: in vitro
Concentration: 600 nM
Notes: 8-mer, flanks averaged, mean of replicates
Reading: higher = stronger binding
| Sequence | E-score |
| --- | --- |
| GACGCGGA | -0.308 |
| CAAGGCGC | -0.22 |
| ACCACGAC | -0.234 |
| AGCCCATA | 0.0636 |
| CAGTGCAC | -0.205 |
| CCTTACCC | -0.195 |
| AGATACTC | 0.0512 |
| TAGACGAA | 0.222 |
| GACGCGCC | -0.33 |
| CCGCTGCC | -0.259 |
| CGGATTAA | 0.0732 |
| ATTCTTGC | 0.0494 |
| AAAAGAAA | 0.237 |
| ACCGTGGC | -0.269 |
| ACTTTCGG | -0.00502 |
| AAGGTGCG | -0.182 |
| AACGATCT | -0.0297 |
| ACCTAGAA | 0.133 |
| CAGTTAAG | 0.0488 |
| TACTGCAA | 0.119 |
| AAGTCCTG | -0.184 |
| CATCTACG | 0.104 |
| GTTGGACA | 0.0982 |
| ATGCGCCA | -0.00186 |
| ATAACAGG | 0.0891 |

Block 3
Target: RNA binding protein fox-1 homolog 2, RRM domain, GST-SBP tag (RBFOX2, Homo sapiens, UniProt O43251-10, residues 100-194)
Technique: RNA Bind-n-Seq
Form: RNA
Matrix: in vitro
Concentration: 365 nM
Notes: natural RNA segment, single round, ends assumed
Baseline: no-protein control
Reading: higher = stronger binding
Constant ends, left off below: GGGAGUUCUACAGUCCGACGAUC … UGGAAUUCUCGGGUGCCAA
Construct (chain): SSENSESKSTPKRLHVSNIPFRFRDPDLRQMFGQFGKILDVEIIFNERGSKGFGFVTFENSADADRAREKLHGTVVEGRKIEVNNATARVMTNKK
| Sequence | RBNS enrichment (R) |
| --- | --- |
| UUGAGAAACACACAGACAACAACGGUGGUGAACACAUUUCCCUUUCUUGAUACCACCCAGAAAGUCUGCUACAUACCUGAGUUAGCCACUAGAUUGCCUGUCCCGACUCA | 0.997 |
| AAAAAUUAGACUGGAAAGUUCAGAAGUACUAAUGCUCCCACAGAAUUGAUUUUAACCCUGAGGUUACAAAGCAGAAGUUAAAUGAACAGCUAGAGGAAGCAGCCUUCCCA | 0.449 |
| UUCAUUUUAAGGGCACACGCAGCAGAGGCUGGUUUGGAGACUAACACAUUUUGCAUUCUGCAUUGUUGUCUUAGAGCACACACACGUUAGACAGCGGGUUGCAGCCACCC | 0.709 |
| GAAGGUUCCAGCAGGUCCCCCACCCUCCCCUCCUCCUCCUACUUCUCCUCUUGACAGCGAGGACAGGAGGGGGACAAGGGGACACCUGGGCAGACCCGCCGGCUCUCCCC | 0.281 |
| AACAAAACUGAUACAAUCUGCUGCCUAUUGUUUGAGGACCCACUGAGUAAUGUUUGUGGCUAUUAAAAUGCAUUAUCAUUAUCCACUUCAAUAGCAUUUUCCUCUGCUUU | 0.608 |
| AUGAUCAGAAAGCUGUGAAAGAUGAACUGUAAUACGCAAAGCCAGACCCGGGCGCUGCCGAGACCCCUCGGGGGCUGCACACCCAGCAGCAGCGCACGCCUCCGAAGCCU | 0.352 |
| GCUGAGAGCUUUUAGAACAAGCAGGCAUUUAUUUAAUGUUUCCUUAGUCCAUUGGCAAGCUUUAUCAAUAGCUUAAUGGCAGAGGAUAAAGGCUCAAACAGAUGAUGUUU | 0.277 |
| UGUAAAAUAUUUUCAAAUGGUUUAUUACAGAAGAUCAGUUAUUAAAUAAUGUUCAUAUUUUCACUUCAAACCAGUUUCUAUCCACUGUGUGGGCCUUGGGUUGAGGACUG | 0.479 |
| AGCCCCUUAGCCCAUGUCAUGUCAGUGGCCACUGCCCACAGGUGCCACCUUGCCCACCGCAUGACCCCUUGUGCCAGUCGCGCAGCUGUGUGUGGUGUCGCGCCCUCUCC | 0.792 |
| AUAAGGCUACUAAGCAUUAGGGCCAAUUAAAGAAUUUUAGUUUCCCUUUCUCAGACAAAUAGCUUUUAUACUUUUUUUUUUUUUUAAACUGACACAUCUGUUCUGUUGGU | 0.737 |
| UGGCACAGUGAUGGCCUGUGUCACCGUGUAGUGUCAUAGGCCAUCACUGUGCCAGAGCAAGCACGCUGAGAAGGCUAGUCUCCAUAGUUGAUGGUUAAUGUUACUUCCAC | 1.29 |
| CUGGACGACCUAAGAGACGGACUGGAAAUGAAGUGGAAUUCAGAAGAAAAUCUCAGUUUUGAUGAUUACGUUGCUUUUUUGUCCAGUAGUUUGGUUUAUAUACAUAAAUA | 0.907 |

Block 4
Target: Myc proto-oncogene protein, bHLH-zipper, MAX partner unstated (MYC, Homo sapiens, UniProt P01106, residues 368-449)
Sequence of UniProt P01106 (368-449, looked up): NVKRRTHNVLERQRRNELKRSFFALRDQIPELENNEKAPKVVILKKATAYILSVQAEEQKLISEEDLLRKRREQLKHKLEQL
Technique: protein-binding microarray
Form: double-stranded DNA, one strand shown
Matrix: in vitro
Concentration: not given
Notes: k-mer, scored over probes, only values ≥0.25
Reading: higher = stronger binding
| Sequence | E-score |
| --- | --- |
| ACACGCGA | 0.387 |
| ACATGTAC | 0.324 |
| GTGTGAAC | 0.259 |
| ACGCGCCA | 0.301 |
| CATGGTCG | 0.322 |
| CACGCATG | 0.451 |
| ATGTGCTG | 0.329 |
| GCATGGAA | 0.36 |
| AAGCGCAT | 0.255 |
| CGTGTGCA | 0.409 |
| CGGCACGA | 0.335 |
| CGTGTCTC | 0.374 |
| AAGCACGT | 0.431 |
| CGTGGCTA | 0.446 |
| ACGTGGCA | 0.448 |
| CGGTAGCA | 0.308 |
| CATGCGAG | 0.361 |
| GGCATGCA | 0.361 |
| CCCACGAG | 0.413 |
| AACGCGGT | 0.276 |
| ACATGGGC | 0.298 |
| ACCACCCC | 0.342 |
| ACGTGTCA | 0.388 |
| ACTGCATG | 0.36 |
| AACACACG | 0.344 |

Block 5
Target: Prothrombin, mature alpha-thrombin (F2, Homo sapiens, UniProt P00734)
Technique: aptamer microarray, sandwich
Form: DNA with 2'F-ANA
Matrix: in vitro
Concentration: 200 nM
Notes: whole 15-mer aptamer, many near background
With: Cy3 exosite-II aptamer, 400 nM
Reading: higher = stronger binding
Sequence: GGTTGGTGTGGTTGG
| Modification | mean fluorescence intensity |
| --- | --- |
| 2'F-ANA at 2 4 5 8 10 11 12 14 | 104 a.u. |
| 2'F-ANA at 1 3 4 7 8 9 14 15 | 79.6 a.u. |
| 2'F-ANA at 2 3 4 6 9 11 12 | 645 a.u. |
| 2'F-ANA at 4 5 7 12 13 15 | 90 a.u. |
| 2'F-ANA at 2 3 4 5 6 8 11 14 | 54.2 a.u. |
| 2'F-ANA at 2 3 6 8 10 11 12 13 15 | 338 a.u. |
| 2'F-ANA at 6 7 8 9 11 12 14 15 | 198 a.u. |
| 2'F-ANA at 1 6 8 9 10 13 15 | 118 a.u. |
| 2'F-ANA at 1 3 4 6 7 8 9 11 13 14 15 | 80.8 a.u. |
| 2'F-ANA at 1 2 3 4 6 11 13 14 15 | 55.1 a.u. |
| 2'F-ANA at 1 2 6 9 10 13 15 | 54.6 a.u. |
| 2'F-ANA at 2 3 5 8 10 12 13 14 | 64.8 a.u. |
| 2'F-ANA at 2 7 8 12 14 | 276 a.u. |
| 2'F-ANA at 2 4 6 11 13 14 15 | 137 a.u. |
| 2'F-ANA at 3 4 6 13 | 687 a.u. |
| 2'F-ANA at 5 7 8 9 11 12 13 14 15 | 50.2 a.u. |
| 2'F-ANA at 2 3 7 8 11 12 14 | 551 a.u. |
| 2'F-ANA at 1 3 5 6 7 9 10 11 12 14 15 | 57.9 a.u. |
| 2'F-ANA at 2 3 4 9 11 12 13 14 15 | 279 a.u. |
| 2'F-ANA at 2 3 6 8 10 11 13 14 | 225 a.u. |
| 2'F-ANA at 1 2 5 7 9 10 11 12 14 | 54.3 a.u. |
| 2'F-ANA at 2 5 7 8 9 10 14 | 45.1 a.u. |
| 2'F-ANA at 2 3 4 5 6 8 12 | 216 a.u. |
| 2'F-ANA at 1 5 7 8 9 12 15 | 122 a.u. |
| 2'F-ANA at 3 4 8 10 11 12 13 | 291 a.u. |

Excerpt of the above (block 4):
| Sequence | E-score |
| --- | --- |
| CATGCGAG | 0.361 |
| CACGCATG | 0.451 |
| AACGCGGT | 0.276 |
| GTGTGAAC | 0.259 |
| CGTGTGCA | 0.409 |
| AAGCACGT | 0.431 |
| CGGTAGCA | 0.308 |
